Experimental data of several laboratories.
Numbered parts are unrelated; each lists some results of a single study. Substitutions count along the parent as printed.

Sample 1 — technique: protein binding microarray; molecule type: double-stranded DNA, one strand shown; sample: in vitro; concentration: not given; reference: not given; reading: higher = stronger binding
Target: Histone acetyltransferase KAT6A, winged helix 2, GST fusion (KAT6A, Homo sapiens, UniProt Q92794, residues 85-181)
Notes: 8-mer, flanks averaged, mean of 2 arrays, mostly near background
Residues (chain): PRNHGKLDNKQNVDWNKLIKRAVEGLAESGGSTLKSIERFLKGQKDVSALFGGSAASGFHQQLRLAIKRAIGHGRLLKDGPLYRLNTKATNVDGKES
The E-score of `CGGACTAA` is reported as 0.0161.
For `CCGGCAGA`, the E-score was 0.173.
`AATATTAA` gave an E-score of 0.203.
With `GAAGCCTA` the E-score was -0.0485.
For `CCCTGCGC`, the E-score was 0.189.
With `ATTCCAGC` the E-score was 0.0342.
With `GGGCACTA` the E-score was -0.00741.
The E-score of `GCCTCTGA` is reported as -0.0272.
`ATTAAGCC` gave an E-score of -0.0621.
The E-score of `ATTGGGCC` is reported as 0.0978.
`AAAACATT` has an E-score of -0.00766.
The E-score of `ACCCATGC` is reported as 0.0244.
With `ATGCAGTC` the E-score was -0.0836.
The E-score of `CGATGTTC` is reported as -0.0924.
The E-score of `TAAATCAA` is reported as 0.0758.
For `AGGACAAC`, the E-score was 0.0177.
The E-score of `CCGGCGAG` is reported as 0.189.
With `CCCTTGTC` the E-score was 0.0756.
For `AGTTTGCG`, the E-score was 0.103.
`CGCCGTCC` has an E-score of 0.162.
The E-score of `AGAACGAA` is reported as 0.105.

Sample 2 — target: CCNA2, cyclin fold, Cln2 fusion (human); technique: yeast growth competition, sequencing; sample: yeast; notes: strong parent motif; reference: not given; reading: higher = stronger binding
Starting sequence: RBL2 docking peptide (human); STTRRRLFVENDS; partner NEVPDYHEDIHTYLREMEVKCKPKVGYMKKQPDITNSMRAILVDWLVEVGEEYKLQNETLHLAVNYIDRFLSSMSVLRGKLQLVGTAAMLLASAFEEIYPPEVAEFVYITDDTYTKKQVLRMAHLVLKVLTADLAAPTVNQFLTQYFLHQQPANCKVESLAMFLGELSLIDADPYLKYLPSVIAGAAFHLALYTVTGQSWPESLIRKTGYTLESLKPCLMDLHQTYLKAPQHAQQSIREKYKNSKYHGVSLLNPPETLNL
For `D12T`, “normalised enrichment score” read 5.33.
`N11W`: “normalised enrichment score” 5.59.
`V9D`: “normalised enrichment score” 5.58.
`R6G`: “normalised enrichment score” 1.83.
For `S13L`, “normalised enrichment score” read 6.04.
`R5K` — result for “normalised enrichment score”: 4.72.
`V9P`: “normalised enrichment score” 5.87.
Under “normalised enrichment score”, `E10N` is recorded as 5.08.
`R6E` — result for “normalised enrichment score”: 3.12.
For `D12R`, “normalised enrichment score” read 5.74.
For `T2P`, “normalised enrichment score” read 3.82.
`S13K`: “normalised enrichment score” 5.62.
Under “normalised enrichment score”, `F8Q` is recorded as 1.16.
`R4L`: “normalised enrichment score” 0.53.
Under “normalised enrichment score”, `F8G` is recorded as -0.18.

Sample 3 — technique: competition protein-binding microarray; molecule type: double-stranded DNA, one strand shown; sample: in vitro; concentration: 2 µM; together with: Cbf1 competitor, 0.05 µM; reading: higher = stronger binding
Target: Phosphate system positive regulatory protein PHO4, full length, GST-tagged (PHO4, Saccharomyces cerevisiae, UniProt P07270, residues 1-312)
Notes: whole 60-bp probe, lowest competitor level
Construct (chain): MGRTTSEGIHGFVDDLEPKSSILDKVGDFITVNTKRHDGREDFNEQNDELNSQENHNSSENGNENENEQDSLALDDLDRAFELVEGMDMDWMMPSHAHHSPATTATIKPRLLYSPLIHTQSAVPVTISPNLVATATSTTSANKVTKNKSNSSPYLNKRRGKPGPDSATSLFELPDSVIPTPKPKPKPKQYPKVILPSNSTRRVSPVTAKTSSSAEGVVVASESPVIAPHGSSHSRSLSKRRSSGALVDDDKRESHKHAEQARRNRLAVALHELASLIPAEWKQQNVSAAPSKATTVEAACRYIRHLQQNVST
The fluorescence intensity of `CATACCCAACCTTGTCACGTTACTTAAGATATTTGTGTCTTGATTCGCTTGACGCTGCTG` is reported as 9090 a.u.
With `TCGGTTACGTACGATAACGTGATTGTGCCACAGGAGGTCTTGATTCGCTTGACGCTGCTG` the fluorescence intensity was 7850 a.u.
For `TCTTGTTCGGCCGGTAGCGTGCCGATTCAGGTAACGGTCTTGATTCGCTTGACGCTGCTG`, the fluorescence intensity was 7070 a.u.
With `TGTGGAGTTCAGCTTGCTACGAATACGCAGTTTTAGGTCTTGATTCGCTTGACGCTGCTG` the fluorescence intensity was 2810 a.u.
The fluorescence intensity of `CTCTCGGGCGTCGCCAACGTGGTCGTTCAAATGCTTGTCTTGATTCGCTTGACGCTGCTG` is reported as 14600 a.u.
The fluorescence intensity of `TTCAGAAGGTGGAGACACATGAAATTGACAGGTCTTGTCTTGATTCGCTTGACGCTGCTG` is reported as 4070 a.u.
With `TCACTCTGCCTTCATCACATGCTTTTTTCTATGGTTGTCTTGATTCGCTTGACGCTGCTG` the fluorescence intensity was 9560 a.u.
With `GTCTTGTCTCATTGTACAGTGGGTGTCCCCACTTCAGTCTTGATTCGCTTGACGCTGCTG` the fluorescence intensity was 4770 a.u.
`AAGAATGTCATATTCTTCGTGACGGATGGGATGGGAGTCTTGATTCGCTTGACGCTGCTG` has a fluorescence intensity of 3970 a.u.

Sample 4 — technique: universal PBM; molecule type: double-stranded DNA, one strand shown; sample: in vitro; concentration: not given; reading: higher = stronger binding
Target: Sal-like protein 4, full length isoform B (SALL4, Homo sapiens, UniProt Q9UJQ4-2, residues 1-616)
Notes: 8-mer, flanks averaged, mean of replicates
Residues (chain): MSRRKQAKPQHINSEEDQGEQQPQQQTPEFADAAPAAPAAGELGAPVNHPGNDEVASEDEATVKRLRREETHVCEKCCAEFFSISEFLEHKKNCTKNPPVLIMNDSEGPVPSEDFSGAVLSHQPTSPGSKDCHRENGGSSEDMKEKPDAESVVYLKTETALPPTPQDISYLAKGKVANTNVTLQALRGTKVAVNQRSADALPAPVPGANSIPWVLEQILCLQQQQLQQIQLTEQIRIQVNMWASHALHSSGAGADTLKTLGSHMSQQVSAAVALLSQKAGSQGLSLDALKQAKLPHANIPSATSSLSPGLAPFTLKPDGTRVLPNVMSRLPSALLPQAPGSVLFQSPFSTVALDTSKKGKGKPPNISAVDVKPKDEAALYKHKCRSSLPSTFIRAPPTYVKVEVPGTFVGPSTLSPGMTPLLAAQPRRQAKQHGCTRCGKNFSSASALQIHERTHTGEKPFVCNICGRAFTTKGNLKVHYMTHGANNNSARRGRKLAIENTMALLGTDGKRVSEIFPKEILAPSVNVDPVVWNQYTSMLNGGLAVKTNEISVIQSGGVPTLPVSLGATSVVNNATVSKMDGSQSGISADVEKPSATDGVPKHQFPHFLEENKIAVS
With `CGAATAAA` the E-score was 0.189.
`GCAATCAC` gave an E-score of 0.068.
With `AGCGATTC` the E-score was -0.167.
For `TCACGGAA`, the E-score was 0.102.
`ACTGAGAT` gave an E-score of -0.00187.
The E-score of `ACGTAAGA` is reported as 0.225.
The E-score of `GGGCCCAA` is reported as -0.159.
`CGATAACG` gave an E-score of -0.0717.
For `ACTTAGGG`, the E-score was -0.0747.
With `GTATAGGA` the E-score was 0.156.
The E-score of `CTTTAGGA` is reported as 0.0299.
`CAAAGCGG` has an E-score of -0.175.
`AATTAGCC` gave an E-score of 0.0132.
With `CTCCTGAA` the E-score was -0.0348.
With `ATGACTTA` the E-score was 0.179.
`ATAGAACA` gave an E-score of 0.229.
`ATATTTCA` gave an E-score of 0.387.
`ATGGAACG` gave an E-score of -0.047.
With `CGCATACA` the E-score was 0.133.
For `TGTGAACA`, the E-score was 0.0138.
`ACTTGCAC` gave an E-score of 0.041.
For `CGCCTGAG`, the E-score was -0.285.
With `AGCCCGTG` the E-score was -0.351.
With `GAACCCTA` the E-score was 0.0774.
`CAAACCGC` has an E-score of -0.217.

Excerpt of the above (sample 2):
For `D12T`, “normalised enrichment score” read 5.33.
Under “normalised enrichment score”, `F8G` is recorded as -0.18.
`R6G`: “normalised enrichment score” 1.83.
`R5K` — result for “normalised enrichment score”: 4.72.
`R6E` — result for “normalised enrichment score”: 3.12.
`V9P`: “normalised enrichment score” 5.87.
`S13K`: “normalised enrichment score” 5.62.
